Measurements collected from several papers.
Parts stem from different laboratories: compare values within a part only.
Sequence of UniProt P11802 (whole entry, looked up): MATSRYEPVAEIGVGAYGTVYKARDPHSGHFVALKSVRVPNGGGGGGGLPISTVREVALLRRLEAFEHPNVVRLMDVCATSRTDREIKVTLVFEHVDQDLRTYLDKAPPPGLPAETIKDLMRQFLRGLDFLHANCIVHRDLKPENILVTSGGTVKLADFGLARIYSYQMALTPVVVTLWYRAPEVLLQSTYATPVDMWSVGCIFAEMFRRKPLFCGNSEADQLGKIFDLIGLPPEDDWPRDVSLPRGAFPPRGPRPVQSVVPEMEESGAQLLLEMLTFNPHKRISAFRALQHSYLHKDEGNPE
Sequence of UniProt Q86Y07 (whole entry, looked up): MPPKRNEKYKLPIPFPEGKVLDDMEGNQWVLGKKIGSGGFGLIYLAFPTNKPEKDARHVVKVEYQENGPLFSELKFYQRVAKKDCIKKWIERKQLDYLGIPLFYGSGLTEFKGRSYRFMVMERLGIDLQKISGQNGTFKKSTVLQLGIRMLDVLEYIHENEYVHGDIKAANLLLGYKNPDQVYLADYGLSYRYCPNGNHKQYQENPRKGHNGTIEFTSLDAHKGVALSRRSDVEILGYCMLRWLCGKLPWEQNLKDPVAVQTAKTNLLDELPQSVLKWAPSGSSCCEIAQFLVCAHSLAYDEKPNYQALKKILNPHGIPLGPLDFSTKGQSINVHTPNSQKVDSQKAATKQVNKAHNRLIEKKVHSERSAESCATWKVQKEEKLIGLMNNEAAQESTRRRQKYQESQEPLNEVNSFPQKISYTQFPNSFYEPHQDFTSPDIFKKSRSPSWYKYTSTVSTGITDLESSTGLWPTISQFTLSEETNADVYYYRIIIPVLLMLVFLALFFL
Sequence of UniProt P27037 (whole entry, looked up): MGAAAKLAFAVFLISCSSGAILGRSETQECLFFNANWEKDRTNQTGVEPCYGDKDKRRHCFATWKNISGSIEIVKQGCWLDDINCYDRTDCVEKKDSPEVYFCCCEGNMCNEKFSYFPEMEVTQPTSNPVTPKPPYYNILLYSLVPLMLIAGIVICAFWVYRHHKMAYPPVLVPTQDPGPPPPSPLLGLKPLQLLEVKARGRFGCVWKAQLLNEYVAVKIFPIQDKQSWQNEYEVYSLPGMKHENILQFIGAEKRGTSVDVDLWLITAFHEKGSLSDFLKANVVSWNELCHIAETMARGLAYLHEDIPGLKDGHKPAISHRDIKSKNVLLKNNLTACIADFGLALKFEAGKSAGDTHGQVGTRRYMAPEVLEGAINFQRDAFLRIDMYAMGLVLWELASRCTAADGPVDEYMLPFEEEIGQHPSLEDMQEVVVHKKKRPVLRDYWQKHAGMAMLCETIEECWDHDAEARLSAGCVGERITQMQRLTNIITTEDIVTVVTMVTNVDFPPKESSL

Study 1 — effect on: enzyme activity; action: inhibitor; concentration: 10 µM
Target: Calcium/calmodulin-dependent protein kinase type II subunit alpha (CAMK2A, Homo sapiens, UniProt Q9UQM7)
Sequence of UniProt Q9UQM7 (whole entry, looked up): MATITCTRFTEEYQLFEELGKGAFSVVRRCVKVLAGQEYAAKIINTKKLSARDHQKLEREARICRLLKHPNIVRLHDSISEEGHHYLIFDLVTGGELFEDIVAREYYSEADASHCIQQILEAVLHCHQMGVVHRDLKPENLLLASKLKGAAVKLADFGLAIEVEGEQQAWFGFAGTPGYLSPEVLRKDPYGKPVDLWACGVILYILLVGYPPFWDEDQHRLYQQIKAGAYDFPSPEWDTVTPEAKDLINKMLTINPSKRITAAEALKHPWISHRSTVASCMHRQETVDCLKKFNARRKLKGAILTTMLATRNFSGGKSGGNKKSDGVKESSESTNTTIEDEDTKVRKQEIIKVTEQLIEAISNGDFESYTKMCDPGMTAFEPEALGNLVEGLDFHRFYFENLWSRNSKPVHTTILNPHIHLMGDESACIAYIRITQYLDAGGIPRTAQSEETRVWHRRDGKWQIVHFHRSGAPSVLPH
`COc1ccc(-c2coc3cc(O)ccc3c2=O)cc1` gave an inhibition of -9%.
`O=C1c2c(O)cccc2Cc2cccc(O)c21` gave an inhibition of 3%.
`CC(C)n1nccc1-c1ncccc1COc1cccc(O)c1C=O` gave an inhibition of -4%.
With `CC(C)=CCC[C@](C)(O)[C@H]1CC[C@]2(C)[C@@H]1[C@H](O)C[C@@H]1[C@@]3(C)C[C@@H](O)[C@H](O[C@@H]4O[C@H](CO)[C@@H](O)[C@H](O)[C@H]4O[C@@H]4O[C@H](CO)[C@@H](O)[C@H](O)[C@H]4O)C(C)(C)[C@@H]3CC[C@]12C` the inhibition was 30%.
The inhibition of `C#C[C@]1(OC(C)=O)CC[C@H]2[C@@H]3CCC4=CC(=O)CC[C@@H]4[C@H]3CC[C@@]21C` is reported as 10%.
With `COc1ccc(-n2nc(C(N)=O)c3c2C(=O)N(c2ccc(N4CCCCC4=O)cc2)CC3)cc1` the inhibition was 4%.
For `COc1cc(CN)ccc1O`, the inhibition was 10%.
`C=C(C#N)C(=O)OCCCC` gave an inhibition of -3%.
`CC(C)(Oc1ccc(Cl)cc1)C(=O)O` gave an inhibition of 16%.
With `COc1ccccc1N1CCN(CC(O)COc2cccc3ccccc23)CC1` (centres unmarked) the inhibition was -3%.
`C[C@H](N)C(=O)O` gave an inhibition of 13%.
With `O=CCc1ccccc1` the inhibition was -3%.

Study 2 — effect on: enzyme activity; action: inhibitor; concentration: 0.5 µM; relative to: control
Target: Tyrosine-protein kinase BTK (BTK, Homo sapiens, UniProt Q06187)
Sequence of UniProt Q06187 (whole entry, looked up): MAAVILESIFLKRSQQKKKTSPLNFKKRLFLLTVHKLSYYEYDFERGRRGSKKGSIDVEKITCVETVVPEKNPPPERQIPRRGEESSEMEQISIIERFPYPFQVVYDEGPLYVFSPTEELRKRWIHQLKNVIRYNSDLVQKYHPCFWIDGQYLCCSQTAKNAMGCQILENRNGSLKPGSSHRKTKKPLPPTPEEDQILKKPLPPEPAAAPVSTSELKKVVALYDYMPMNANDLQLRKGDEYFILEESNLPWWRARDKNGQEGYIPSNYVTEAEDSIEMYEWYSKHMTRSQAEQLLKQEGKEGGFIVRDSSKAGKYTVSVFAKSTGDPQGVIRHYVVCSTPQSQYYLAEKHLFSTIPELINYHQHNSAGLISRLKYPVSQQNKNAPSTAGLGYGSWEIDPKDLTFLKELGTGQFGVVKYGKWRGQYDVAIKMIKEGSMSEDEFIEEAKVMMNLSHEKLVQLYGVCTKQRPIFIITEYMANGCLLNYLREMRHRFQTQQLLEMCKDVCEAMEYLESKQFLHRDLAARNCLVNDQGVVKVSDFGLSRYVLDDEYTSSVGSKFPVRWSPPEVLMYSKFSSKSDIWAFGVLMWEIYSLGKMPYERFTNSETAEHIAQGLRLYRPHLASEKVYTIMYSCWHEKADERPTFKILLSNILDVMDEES
The remaining activity of `Cn1nc2c3c(cccc31)C(=O)c1ccccc1-2` is reported as 89.5%.
The remaining activity of `O=C(Nc1cccc(Nc2nccc(Nc3cccc(C(F)(F)F)c3)n2)c1)C1CC1` is reported as 83.7%.
With `O=C(NC(NC(=S)Nc1ccc(F)c([N+](=O)[O-])c1)C(Cl)(Cl)Cl)C(c1ccccc1)c1ccccc1` (centres unmarked) the remaining activity was 104%.
For `COc1cc2ncnc(Nc3cccc(Cl)c3)c2cc1OC`, the remaining activity was 76.7%.
The remaining activity of `Cc1cc2ncc(-c3ccccc3)nc2cc1C` is reported as 94.8%.
For `c1ccc(-c2cnc(Nc3ccc(OCCN4CCCC4)cc3)s2)cc1`, the remaining activity was 101%.
`O=c1cc(-c2cccc3c2Sc2ccccc2S3)oc(N2CCOCC2)c1` gave a remaining activity of 104%.
`CCN(CC)CCNC(=O)c1c(C)[nH]c(/C=C2\C(=O)Nc3ccc(F)cc32)c1C` gave a remaining activity of 50.2%.
The remaining activity of `CN(C)C[C@H]1CCn2c(c(C3=C(c4cn(C)c5ccccc45)C(=O)NC3=O)c3ccccc32)C1` is reported as 103%.
For `COc1cc2c(cc1OC)-c1[nH]nc(Nc3cccc(F)c3)c1C2`, the remaining activity was 40.8%.
With `N#C/C(=C\c1ccc(O)c(O)c1)C(=O)NCc1ccccc1` the remaining activity was 99.8%.
For `CCOc1nc(NC(=O)Cc2cc(OC)ccc2OC)cc(N)c1C#N`, the remaining activity was 92.5%.
`Nc1cccc(-c2cc3c(Oc4cccc(O)c4)ncnc3[nH]2)c1` has a remaining activity of 33.6%.
`N#Cc1c(NC(=O)c2cccc3ccccc23)sc2c1CCCC2` gave a remaining activity of 95%.
`CN([C@@H](Cc1ccc(OS(=O)(=O)c2cccc3cnccc23)cc1)C(=O)N1CCN(c2ccccc2)CC1)S(=O)(=O)c1cccc2cnccc12` has a remaining activity of 97.1%.
`Cc1nc2cc3nc(-c4cccs4)cnc3cc2n1C` gave a remaining activity of 101%.
For `Ic1cccc(CSc2nnc(-c3ccncc3)o2)c1`, the remaining activity was 95.6%.
With `CCN(CC)C(=O)c1ccc(Nc2nc(OCC3CCCCC3)c3[nH]cnc3n2)cc1` the remaining activity was 37.1%.
With `CCN(CC)CCNC(=O)c1c(C)[nH]c(/C=C2\C(=O)Nc3ccc(Cl)cc32)c1C` the remaining activity was 58.3%.
`O=C1c2ccccc2-c2n[nH]c3cccc1c23` gave a remaining activity of 97.8%.
The remaining activity of `O=C1C(Cl)=C(N2C(=O)CCC2=O)C(=O)c2ccccc21` is reported as 103%.
`Cc1cn(-c2cc(NC(=O)c3ccc(C)c(Nc4nccc(-c5cccnc5)n4)c3)cc(C(F)(F)F)c2)cn1` has a remaining activity of 101%.
The remaining activity of `c1ccc(-c2[nH]ncc2-c2ccnc3ccccc23)nc1` is reported as 104%.
The remaining activity of `COc1cc2ncnc(Nc3ccc(O)c(Br)c3)c2cc1OC` is reported as 85.5%.

Study 3 — technique: competition with immobilised ligand; concentration: 1 µM
Structure (SMILES): CCOCCn1cc(C(=O)Nc2ccc(-n3nc(-c4cccnc4)cc3C(F)(F)F)cn2)ccc1=O
The remaining binding was 81% (Receptor-interacting serine/threonine-protein kinase 4 (RIPK4, Homo sapiens, UniProt P57078); cell-free assay).
For Tyrosine-protein kinase ABL2 (ABL2, Homo sapiens, UniProt P42684); cell-free assay: remaining binding read 87%.
The remaining binding was 100% (Serine/threonine-protein kinase Nek7 (NEK7, Homo sapiens, UniProt Q8TDX7); cell-free assay).
For Serine/threonine-protein kinase Nek4 (NEK4, Homo sapiens, UniProt P51957); cell-free assay: remaining binding read 80%.
Aurora kinase A (AURKA, Homo sapiens, UniProt O14965); cell-free assay — remaining binding: 85%.
ALK tyrosine kinase receptor (ALK, Homo sapiens, UniProt Q9UM73, C1156Y); cell-free assay — remaining binding: 100%.
For Tyrosine-protein kinase Lyn (LYN, Homo sapiens, UniProt P07948); cell-free assay: remaining binding read 81%.
It gave 100% for remaining binding (Vascular endothelial growth factor receptor 1 (FLT1, Homo sapiens, UniProt P17948); cell-free assay).
It gave 63% for remaining binding (Receptor-type tyrosine-protein kinase FLT3 (FLT3, Homo sapiens, UniProt P36888); cell-free assay).
Epidermal growth factor receptor (EGFR, Homo sapiens, UniProt P00533, L858R/T790M); cell-free assay — remaining binding: 96%.
For Serine/threonine-protein kinase VRK2 (VRK2, Homo sapiens, UniProt Q86Y07); cell-free assay: remaining binding read 97%.
The remaining binding was 98% (Epidermal growth factor receptor (EGFR, Homo sapiens, UniProt P00533, del747-752/P753S); cell-free assay).
It gave 96% for remaining binding (Myosin-IIIb (MYO3B, Homo sapiens, UniProt Q8WXR4); binding).
Phosphatidylinositol 3-kinase catalytic subunit type 3 (PIK3C3, Homo sapiens, UniProt Q8NEB9); cell-free assay — remaining binding: 77%.
It gave 100% for remaining binding (Cyclin-dependent kinase 2 (CDK2, Homo sapiens, UniProt P24941); cell-free assay).
For Mast/stem cell growth factor receptor Kit (KIT, Homo sapiens, UniProt P10721, D816H); cell-free assay: remaining binding read 79%.
For Serine/threonine-protein kinase 38-like (STK38L, Homo sapiens, UniProt Q9Y2H1); cell-free assay: remaining binding read 66%.
It gave 100% for remaining binding (Dual specificity mitogen-activated protein kinase kinase 6 (MAP2K6, Homo sapiens, UniProt P52564); cell-free assay).
Myosin-IIIa (MYO3A, Homo sapiens, UniProt Q8NEV4); binding — remaining binding: 100%.
It gave 81% for remaining binding (Vascular endothelial growth factor receptor 2 (KDR, Homo sapiens, UniProt P35968); cell-free assay).
It gave 61% for remaining binding (Dual serine/threonine and tyrosine protein kinase (DSTYK, Homo sapiens, UniProt Q6XUX3); cell-free assay).
The remaining binding was 88% (Serine/threonine-protein kinase RIO3 (RIOK3, Homo sapiens, UniProt O14730); cell-free assay).
For Activin receptor type-2A (ACVR2A, Homo sapiens, UniProt P27037); cell-free assay: remaining binding read 100%.
Cyclin-dependent kinase 4, with cyclin D3 (CDK4, Homo sapiens, UniProt P11802); cell-free assay — remaining binding: 81%.
Calcium/calmodulin-dependent protein kinase type II subunit delta (CAMK2D, Homo sapiens, UniProt Q13557); cell-free assay — remaining binding: 100%.

Study 4 — effect on: enzyme activity; action: inhibitor; concentration: 77 µM
Target: DNA polymerase theta, ATPase domain (POLQ, Homo sapiens, UniProt O75417)
Sequence of UniProt O75417 (whole entry, unmodified, looked up): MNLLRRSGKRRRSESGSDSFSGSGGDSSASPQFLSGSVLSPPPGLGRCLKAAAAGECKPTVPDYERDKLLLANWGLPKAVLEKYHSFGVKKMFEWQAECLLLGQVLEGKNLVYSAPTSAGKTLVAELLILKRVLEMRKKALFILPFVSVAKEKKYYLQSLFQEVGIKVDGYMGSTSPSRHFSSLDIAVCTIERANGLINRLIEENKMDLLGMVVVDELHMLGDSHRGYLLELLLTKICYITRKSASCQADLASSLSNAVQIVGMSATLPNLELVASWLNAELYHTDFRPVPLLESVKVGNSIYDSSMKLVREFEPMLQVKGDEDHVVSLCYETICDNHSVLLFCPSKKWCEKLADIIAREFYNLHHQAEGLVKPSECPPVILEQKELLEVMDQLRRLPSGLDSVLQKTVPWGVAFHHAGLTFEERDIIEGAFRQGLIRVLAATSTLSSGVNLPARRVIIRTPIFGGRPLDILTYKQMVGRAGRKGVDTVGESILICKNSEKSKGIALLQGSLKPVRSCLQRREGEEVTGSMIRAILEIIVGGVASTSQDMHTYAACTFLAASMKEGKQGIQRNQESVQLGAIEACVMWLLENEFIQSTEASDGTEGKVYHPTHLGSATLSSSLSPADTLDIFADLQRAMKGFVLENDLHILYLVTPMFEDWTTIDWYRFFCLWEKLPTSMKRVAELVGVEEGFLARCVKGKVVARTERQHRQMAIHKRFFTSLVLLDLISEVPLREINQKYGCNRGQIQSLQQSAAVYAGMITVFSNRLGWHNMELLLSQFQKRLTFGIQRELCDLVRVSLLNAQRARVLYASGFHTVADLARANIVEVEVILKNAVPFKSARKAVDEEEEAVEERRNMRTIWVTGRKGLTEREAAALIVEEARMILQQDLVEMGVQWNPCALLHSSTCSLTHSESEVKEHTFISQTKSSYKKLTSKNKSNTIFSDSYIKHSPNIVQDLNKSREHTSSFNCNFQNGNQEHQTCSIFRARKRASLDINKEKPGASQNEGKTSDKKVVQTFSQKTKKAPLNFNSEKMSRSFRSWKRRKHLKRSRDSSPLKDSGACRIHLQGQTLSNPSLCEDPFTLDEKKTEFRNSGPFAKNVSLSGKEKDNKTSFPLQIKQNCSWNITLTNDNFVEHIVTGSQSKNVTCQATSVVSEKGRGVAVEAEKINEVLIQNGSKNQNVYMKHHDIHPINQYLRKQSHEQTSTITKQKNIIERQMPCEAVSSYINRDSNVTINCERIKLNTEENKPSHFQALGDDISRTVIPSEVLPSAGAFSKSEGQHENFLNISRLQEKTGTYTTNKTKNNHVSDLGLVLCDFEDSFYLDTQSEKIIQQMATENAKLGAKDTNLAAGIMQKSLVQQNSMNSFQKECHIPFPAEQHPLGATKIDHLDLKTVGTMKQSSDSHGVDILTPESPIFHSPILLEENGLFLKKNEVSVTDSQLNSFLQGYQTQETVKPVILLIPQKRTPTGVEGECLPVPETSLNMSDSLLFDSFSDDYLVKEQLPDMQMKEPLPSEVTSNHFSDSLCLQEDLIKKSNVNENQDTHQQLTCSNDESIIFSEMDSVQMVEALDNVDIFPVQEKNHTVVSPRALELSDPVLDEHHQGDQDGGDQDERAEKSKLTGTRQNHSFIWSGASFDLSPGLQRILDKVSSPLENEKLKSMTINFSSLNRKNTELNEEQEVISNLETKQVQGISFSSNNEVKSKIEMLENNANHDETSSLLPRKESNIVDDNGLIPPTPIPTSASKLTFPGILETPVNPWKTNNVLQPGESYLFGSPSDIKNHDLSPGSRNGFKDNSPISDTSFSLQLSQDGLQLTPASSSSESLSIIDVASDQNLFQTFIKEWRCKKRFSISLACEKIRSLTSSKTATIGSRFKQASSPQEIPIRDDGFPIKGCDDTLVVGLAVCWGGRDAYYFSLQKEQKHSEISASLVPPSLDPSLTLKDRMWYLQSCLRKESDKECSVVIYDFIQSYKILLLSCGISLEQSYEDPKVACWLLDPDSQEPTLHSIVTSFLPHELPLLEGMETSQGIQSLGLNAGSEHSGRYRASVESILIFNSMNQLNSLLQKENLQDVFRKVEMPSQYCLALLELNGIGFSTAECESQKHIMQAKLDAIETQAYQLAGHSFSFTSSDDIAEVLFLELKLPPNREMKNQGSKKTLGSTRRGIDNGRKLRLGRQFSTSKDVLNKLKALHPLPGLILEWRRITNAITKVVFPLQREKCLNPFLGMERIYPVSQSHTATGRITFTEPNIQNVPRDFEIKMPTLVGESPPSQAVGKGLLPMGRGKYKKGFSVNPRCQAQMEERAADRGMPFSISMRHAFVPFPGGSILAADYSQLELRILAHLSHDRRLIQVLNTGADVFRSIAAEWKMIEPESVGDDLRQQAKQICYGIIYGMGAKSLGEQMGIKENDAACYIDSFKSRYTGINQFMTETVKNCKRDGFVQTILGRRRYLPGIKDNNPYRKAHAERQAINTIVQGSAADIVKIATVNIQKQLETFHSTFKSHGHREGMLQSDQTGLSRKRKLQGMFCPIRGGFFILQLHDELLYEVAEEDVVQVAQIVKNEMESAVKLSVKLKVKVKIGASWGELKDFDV
`NC1(Cc2ccc(Cl)cc2)CCN(c2ncnc3[nH]ccc23)CC1` has a remaining activity of 97.9%.
The remaining activity of `COc1ccc(CCN2CCC(Nc3nc4ccccc4n3Cc3ccc(F)cc3)CC2)cc1` is reported as 98.6%.
`COc1ccc(C[C@@H](C)NC[C@H](O)c2ccc(O)c(NC=O)c2)cc1` (racemic) gave a remaining activity of 101%.
`COc1cc([C@@H]2c3cc4c(cc3[C@@H](O[C@@H]3O[C@@H]5CO[C@@H](C)O[C@H]5[C@H](O)[C@H]3O)[C@H]3COC(=O)[C@H]23)OCO4)cc(OC)c1O` gave a remaining activity of 112%.
`Cc1c(C(N)=O)cc([N+](=O)[O-])cc1[N+](=O)[O-]` has a remaining activity of 100%.
`CCCC(CCC)C(=O)O[C@H]1C[C@H]2CC[C@@H](C1)[N+]2(C)C` gave a remaining activity of 105%.
For `CC(C)(C)NC[C@H](O)c1ccc(O)c(CO)c1`, the remaining activity was 99.8%.
For `Cc1nc2n(c(=O)c1CCN1CCC(c3noc4cc(F)ccc34)CC1)CCCC2`, the remaining activity was 96.2%.
`CC(=O)Nc1nnc(S(N)(=O)=O)s1` gave a remaining activity of 102%.
For `Nc1nc(N)c2nc(CNc3ccc(C(=O)N[C@@H](CCC(=O)O)C(=O)O)cc3)cnc2n1`, the remaining activity was 99%.

A few entries again (study 4):
For `CC(C)(C)NC[C@H](O)c1ccc(O)c(CO)c1`, the remaining activity was 99.8%.
`Cc1c(C(N)=O)cc([N+](=O)[O-])cc1[N+](=O)[O-]` has a remaining activity of 100%.
For `Cc1nc2n(c(=O)c1CCN1CCC(c3noc4cc(F)ccc34)CC1)CCCC2`, the remaining activity was 96.2%.
`CCCC(CCC)C(=O)O[C@H]1C[C@H]2CC[C@@H](C1)[N+]2(C)C` gave a remaining activity of 105%.
`CC(=O)Nc1nnc(S(N)(=O)=O)s1` gave a remaining activity of 102%.
`COc1cc([C@@H]2c3cc4c(cc3[C@@H](O[C@@H]3O[C@@H]5CO[C@@H](C)O[C@H]5[C@H](O)[C@H]3O)[C@H]3COC(=O)[C@H]23)OCO4)cc(OC)c1O` gave a remaining activity of 112%.
For `Nc1nc(N)c2nc(CNc3ccc(C(=O)N[C@@H](CCC(=O)O)C(=O)O)cc3)cnc2n1`, the remaining activity was 99%.
`NC1(Cc2ccc(Cl)cc2)CCN(c2ncnc3[nH]ccc23)CC1` has a remaining activity of 97.9%.
`COc1ccc(C[C@@H](C)NC[C@H](O)c2ccc(O)c(NC=O)c2)cc1` (racemic) gave a remaining activity of 101%.
The remaining activity of `COc1ccc(CCN2CCC(Nc3nc4ccccc4n3Cc3ccc(F)cc3)CC2)cc1` is reported as 98.6%.
